Experimental data pooled from the literature.
Numbered parts are unrelated; each lists some results of a single study. Positions count from the first letter of the parent shown.

Block 1
Target: CCND2, cyclin fold, Cln2 fusion (human)
Method: yeast growth competition, sequencing
Sample: yeast
Notes: weak parent motif
Baseline: not given
Direction: higher = stronger binding
Quantity: normalised enrichment score
Starting sequence: TICRR docking peptide (human); TKVRRNLFNQELL
TKVARNLFNQELL [R4A]: -0.0212
AKVRRNLFNQELL [T1A]: 0.159
TKVRRNAFNQELL [L7A]: -0.244
TKVRRALFNQELL [N6A]: 0.118
TKVRRNLFNQELA [L13A]: 0.414
TKVRRNLFNAELL [Q10A]: 0.107
TKVRRNLFAQELL [N9A]: 0.25
TKVRKNLFNQELL [R5K]: -0.0588
TKVRANAFNQELL [R5A L7A]: 0.211
TKVRRNLLNQELL [F8L]: 0.683

Block 2
Target: Prothrombin, mature alpha-thrombin (F2, Homo sapiens, UniProt P00734)
Method: aptamer microarray, sandwich
Form: DNA with 2'F-ANA
Sample: in vitro
Concentration: 200 nM
Notes: whole 15-mer aptamer, many near background
With: Cy3 exosite-II aptamer, 400 nM
Direction: higher = stronger binding
Quantity: mean fluorescence intensity
Sequence: GGTTGGTGTGGTTGG
2'F-ANA at 1 2 4 7 11 12 15: 229 a.u.
2'F-ANA at 7 8 9 11 12 13 14 15: 204 a.u.
2'F-ANA at 2 6 8 11 12 15: 573 a.u.
2'F-ANA at 3 5 6 9 11 12 15: 161 a.u.
2'F-ANA at 5 8 10 11 12 15: 58.2 a.u.
2'F-ANA at 1 4 6 7 8 9 10 13 14: 52.4 a.u.
2'F-ANA at 1 2 3 5 7 11 13: 50.4 a.u.
2'F-ANA at 1 2 3 4 9 11 14: 59.3 a.u.
2'F-ANA at 5 8 9 12 15: 196 a.u.
2'F-ANA at 4 5 6 8 9 10 11 14 15: 47.7 a.u.
2'F-ANA at 2 3 4 6 12 14: 306 a.u.
2'F-ANA at 4 5 7 11 13 14: 45 a.u.
2'F-ANA at 1 2 3 7 8 9 11 12 14: 97.7 a.u.
2'F-ANA at 1 2 3 5 6 8 9 10 11 13 14 15: 49.8 a.u.
2'F-ANA at 2 3 4 7 8 9 11 12 15: 780 a.u.
2'F-ANA at 1 2 4 5 6 10 12 13 14: 44.9 a.u.
2'F-ANA at 3 7 8 9 12 15: 1560 a.u.
2'F-ANA at 3 4 5 8 9 11 12 13: 120 a.u.
2'F-ANA at 2 3 5 8 13 14: 59 a.u.
2'F-ANA at 2 4 6 7 10 11 14: 58.8 a.u.
2'F-ANA at 1 2 4 5 6 9 11 13 14: 48.6 a.u.
2'F-ANA at 2 3 6 7 11 14: 350 a.u.

Block 3
Target: RNA binding protein fox-1 homolog 2, RRM domain, GST-SBP tag (RBFOX2, Homo sapiens, UniProt O43251-10, residues 100-194)
Method: RNA Bind-n-Seq
Form: RNA
Sample: in vitro
Concentration: 365 nM
Notes: natural RNA segment, single round, ends assumed
Baseline: no-protein control
Direction: higher = stronger binding
Quantity: RBNS enrichment (R)
Constant ends, left off below: GGGAGUUCUACAGUCCGACGAUC … UGGAAUUCUCGGGUGCCAA
Target sequence (chain): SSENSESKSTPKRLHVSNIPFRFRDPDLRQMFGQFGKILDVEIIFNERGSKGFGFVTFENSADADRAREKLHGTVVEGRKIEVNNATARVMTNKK
CAUUCUGGAACUGCUGGUCAGGGGACUUUGUCGCCCUGUGCACUAAAAGGGCCAGAUUUUCAGCAGCCAAGGACAUCCAUACCCAAGUGAAUGUGAUGGGACUUAAAAGA: 1.44
UGAAUUAGGAGCCGUUUUGGUAAUUAUUUCAUAUAUCGCCGUUUAUUGAGAAAAGGUUGUAGGAAGCCUCACAAGAGACUUUUGACAAUUCUGAGGAACCUUGUGCCCAG: 0.216
GCAUGUCAAAGAGACCUAGGUUCUUUCUUUCUUUCUUUCUCUCUUUCUUUCAGUUUGCUUUUGGUUUCCUGUAUAUUUGCUUACUGUGCUGUUCUAGUGGUUGUAGGGUA: 16.3
UUUUAAGUGUGCUUUAAAGAAAAAUAUUUUCCCCACAAGAGAAAUUUAAAUAAAGAAUUUUAUUUGUUAUGGUUUGUUUUAGUAUGUUUUUGUGUCCAUGAUGAGAUUAA: 4.21
CAGAGUGCUUUAUGCUUUUUAAUGACUGUUAGUGUUUCUCACAUGCCUGUGAGAUACAUCAGCAUUGCAAACUGUGACUGGGGAAAGUCUGGGGGAGGAGUGUGGUAAGC: 0.935
UGAUAAGCACUUGGAGGGGGACUUGGAAGGUGAGAAAGAUACUGCAUUUUCUCAUGAGUCUCCAAGCCCACUUGAAAAGUCACACUGAAAGGAUGCAAAUAGCCGUCUGC: 0.397
AGAGGAAAGGCUGAAGCCGCUAACGCUCACACUGCCUGCACGGCACUGUUGCGGAGAGCUCUGAUGGGAACUGUGCAACAUGGAGCGUGGAGCCUGCCGAUCCUAGCUCA: 0.972
CAGCAAUUGAAAUUUAUGUGAAUUAUUUUGAUUGUAGAAGCACUAUAAUAUGUGCUGAAACUAAAUUUCUUUAAUAUUUUCUAUUCCUGUCAGCACCUUUUCUAGCAGCU: 1.13

Block 4
Target: Sal-like protein 4, full length isoform A (SALL4, Homo sapiens, UniProt Q9UJQ4, residues 1-1053)
UniProt Q9UJQ4, sequence (whole entry, looked up): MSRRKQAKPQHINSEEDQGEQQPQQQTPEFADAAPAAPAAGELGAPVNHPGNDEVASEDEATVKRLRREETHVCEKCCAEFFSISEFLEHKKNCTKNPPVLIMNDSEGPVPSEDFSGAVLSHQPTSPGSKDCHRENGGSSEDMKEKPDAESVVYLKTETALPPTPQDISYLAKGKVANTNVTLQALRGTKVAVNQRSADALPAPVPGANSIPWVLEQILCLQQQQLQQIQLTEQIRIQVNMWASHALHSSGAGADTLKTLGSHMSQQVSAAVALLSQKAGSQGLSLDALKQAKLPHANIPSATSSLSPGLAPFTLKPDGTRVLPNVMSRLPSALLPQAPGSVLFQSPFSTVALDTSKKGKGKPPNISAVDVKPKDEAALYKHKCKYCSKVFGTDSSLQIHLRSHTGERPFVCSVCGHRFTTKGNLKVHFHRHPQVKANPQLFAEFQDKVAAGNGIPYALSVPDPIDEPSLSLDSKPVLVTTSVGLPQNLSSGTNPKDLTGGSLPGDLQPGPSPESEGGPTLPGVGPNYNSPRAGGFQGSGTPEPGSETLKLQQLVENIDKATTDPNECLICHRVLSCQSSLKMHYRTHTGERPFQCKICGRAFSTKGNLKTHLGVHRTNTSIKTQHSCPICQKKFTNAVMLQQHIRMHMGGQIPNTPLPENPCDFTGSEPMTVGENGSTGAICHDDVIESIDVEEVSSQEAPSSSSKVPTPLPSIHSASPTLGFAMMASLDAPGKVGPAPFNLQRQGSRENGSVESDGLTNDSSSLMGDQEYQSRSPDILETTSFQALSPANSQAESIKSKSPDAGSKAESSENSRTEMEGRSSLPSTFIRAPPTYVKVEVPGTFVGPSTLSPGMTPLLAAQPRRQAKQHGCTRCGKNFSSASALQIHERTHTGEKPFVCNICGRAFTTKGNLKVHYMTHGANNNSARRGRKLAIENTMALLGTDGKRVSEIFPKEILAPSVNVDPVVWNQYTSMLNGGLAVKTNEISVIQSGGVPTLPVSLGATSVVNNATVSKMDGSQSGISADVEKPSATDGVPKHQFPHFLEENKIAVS
Method: universal PBM
Form: double-stranded DNA, one strand shown
Sample: in vitro
Concentration: 600 nM
Notes: 8-mer, flanks averaged, mean of replicates
Direction: higher = stronger binding
Quantity: E-score
ACGGTCCC: -0.31
CGCTCTGC: -0.222
CTTCATCA: 0.133
AGGTAATA: 0.315
AGCGGGTA: -0.154
AGGTATAG: 0.123
CGCATGGA: -0.0786
AGTGAACC: -0.136
AAGACACA: 0.0465
CTGTCAGA: -0.166
ACTTACAA: 0.305
GACCACAA: -0.0948
CCTAGCCC: -0.3
ATGCAACC: 0.105
ACACTGTC: 0.0473
AAAGGAGC: -0.0257
CTCTAAAC: 0.0589
GTTAGTAA: 0.186
CTACGATC: -0.0375
AGGGATGA: -0.0537
AAGCCGGA: -0.19
AAAGCAAG: 0.16
AGAAGAGG: -0.0454
ATACTCCA: 0.135
ATTTGAAC: 0.202

Repeated from above (block 2):
2'F-ANA at 2 4 6 7 10 11 14: 58.8 a.u.
2'F-ANA at 2 3 4 7 8 9 11 12 15: 780 a.u.
2'F-ANA at 1 2 3 4 9 11 14: 59.3 a.u.
